Assay results from different studies.
Each numbered part is a random draw from the data of one study; scales do not carry over between parts.

Sample 1 — technique: protein binding microarray; form: double-stranded DNA, one strand shown; sample: in vitro; concentration: not given; reference: not given; reading: higher = stronger binding
Target: Histone acetyltransferase KAT6A, winged helix 1, GST fusion (KAT6A, Homo sapiens, UniProt Q92794, residues 1-85)
Notes: 8-mer, flanks averaged, mean of 2 arrays, mostly near background
Residues (chain): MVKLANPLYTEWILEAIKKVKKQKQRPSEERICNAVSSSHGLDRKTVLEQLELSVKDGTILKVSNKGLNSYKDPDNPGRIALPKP
With `AAACCACA` the E-score was -0.119.
`CGACAACG` has an E-score of 0.0323.
For `CTGAACCA`, the E-score was -0.292.
With `GGCCGGTA` the E-score was 0.276.
The E-score of `CCTCCCTA` is reported as -0.246.
`CAATCCGA` gave an E-score of 0.047.
`ACTCTGCG` has an E-score of 0.0483.
`ACGCGCGG` has an E-score of 0.47.
`CCAGTCTA` has an E-score of -0.0805.
`ACAGATAA` has an E-score of -0.106.
With `GGTCCAGA` the E-score was -0.115.
With `ACTTGACC` the E-score was -0.166.
The E-score of `ACGCAACT` is reported as -0.00758.
`ATACCCCA` has an E-score of -0.188.
The E-score of `ATGATCAA` is reported as -0.0203.
For `CTGGCATC`, the E-score was -0.196.
`CTGAAGAA` gave an E-score of -0.00359.
`ACGGCACC` has an E-score of 0.307.
`GTTGGAGA` has an E-score of -0.118.
With `CGTGGATC` the E-score was 0.00235.
`CGACCGTA` gave an E-score of 0.202.
`ACGTACTG` has an E-score of -0.153.
For `GGTTACAA`, the E-score was 0.0567.
The E-score of `GGTCACAC` is reported as 0.00856.
For `ACGCATAC`, the E-score was 0.239.

Sample 2 — technique: RNA Bind-n-Seq; form: RNA; sample: in vitro; concentration: not given; reference: input RNA pool; reading: higher = stronger binding
Target: RING finger protein unkempt homolog, zinc fingers 1-6, GST-SBP tag (UNK, Homo sapiens, UniProt Q9C0B0, residues 30-357)
Notes: RNA with constant flanks, human-mouse chimeric sites, ends assumed
Target sequence (chain): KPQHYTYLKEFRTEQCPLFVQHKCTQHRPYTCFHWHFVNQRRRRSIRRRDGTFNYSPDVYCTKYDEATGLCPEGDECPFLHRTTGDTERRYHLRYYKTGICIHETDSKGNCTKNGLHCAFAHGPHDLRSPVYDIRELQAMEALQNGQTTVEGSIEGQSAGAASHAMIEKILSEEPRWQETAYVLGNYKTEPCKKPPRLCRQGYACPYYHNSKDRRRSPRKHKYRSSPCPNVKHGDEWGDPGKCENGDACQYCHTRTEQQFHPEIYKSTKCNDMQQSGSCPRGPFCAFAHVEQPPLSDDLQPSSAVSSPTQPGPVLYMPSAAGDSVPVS
With `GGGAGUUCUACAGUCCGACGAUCAUCAAAUACUUUGGGGACAUCAUUAGUGUGGGACAGAGACUGUUGCAAGGAGCUCGGAUCUUAGGGAUUCCAGUUAUCAUAACGGAACAAUACCCUAAAGGACUUGGGAGCACGGUUCAACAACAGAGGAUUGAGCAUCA` the bound/input enrichment was 0.243 ratio.
The bound/input enrichment of `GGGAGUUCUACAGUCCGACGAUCUGACAAGGGCACUGCAGAGCCAUGCCUUUCUUGGACAUACAGAAAAAGCUGGGCAUCAGCCUGGACCGGCACUUUAUAAUCCAGAGUGCAGAACAGCCCUAUAAGAACGCCGCUCGGUGCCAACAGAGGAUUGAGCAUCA` is reported as 0.0916 ratio.
The bound/input enrichment of `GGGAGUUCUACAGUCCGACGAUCCUGGCACUGUAUCAGAUAUAUUAAUUUUUUAAUGUAGAUGUAAUUUUAAAAAUGAAUGGCUACUUUACACGUUUAACUAGGGUUUUACUAUAUAUGUGUACAUAUGUAUAUAUAUAUAUACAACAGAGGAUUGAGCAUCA` is reported as 3.88 ratio.
`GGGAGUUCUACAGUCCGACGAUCCCCCACAACCAUUUGCAGGUCUGGAACUGCACUCUCUUUUUUAAAAAACAUGUAUACAUUUUAGGGCUGUAGAUUUAUUUUCCUGGUUUCUUUUCCAAUUGCUGACUUUUGAGCACAGAACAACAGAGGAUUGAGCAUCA` gave a bound/input enrichment of 2.24 ratio.
`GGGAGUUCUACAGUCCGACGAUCUUAUCCAAGACUCAACGAAAGACUCCAACGGUUAUUCAUAAACAUUAUCAAAUUCAUCGCAUUAGACAUUUUUACAUGAGAAAAGUCAAAUUUACUCAACAGAAUUACCAUGACAGACUGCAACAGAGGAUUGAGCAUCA` has a bound/input enrichment of 9.44 ratio.
`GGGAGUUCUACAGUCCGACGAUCCAGGGCAGCACCACCCCCCCCUCCUCCUUUCCACACCUGCAAACUCUUUUACUUGGGCUGAAUAUUUAGUGUAAUUACAUCUCAGCUUUGAGGGCUCCUGUGGCAAAUUCCCGGAUUAAACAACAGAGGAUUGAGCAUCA` gave a bound/input enrichment of 0.918 ratio.
`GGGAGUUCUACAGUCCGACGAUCUCAGAAGCUGUGCUGGGUCACUUUUCAUAUCCAGAUCCUUCACAGUGGACAGAUGAAGAACUGGGAAUCCCUCCUGAUGACGAGGACUGAAGGUGUAAACUCUCUGGACGAGUAGGAGCACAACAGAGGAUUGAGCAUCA` has a bound/input enrichment of 0.466 ratio.
For `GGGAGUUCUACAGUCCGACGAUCAAAGUGGACUAUGGUGAGUACAUGGAUAAAAACAAUGUGAGGCGGCAAGCAACAACAAUCAUAGCUGAUAACAUUAUAUUUCUGAGUGACCAGACAAAAGAAAAGGCAUAGAACGGAUGACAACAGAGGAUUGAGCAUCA`, the bound/input enrichment was 2.08 ratio.
For `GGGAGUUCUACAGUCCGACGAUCGCGGCAGAAUCAUGGAGGACAUGAUGGAGCUCCCCAAGUCGCGCAUCAACGCCAGCAUGUUACCACAGUAUAUCGACCGGCCCGUGUGCUUCGUGGGGAAGCUGGAAAAGAUUCAUCCCACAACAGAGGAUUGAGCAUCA`, the bound/input enrichment was 0.11 ratio.
The bound/input enrichment of `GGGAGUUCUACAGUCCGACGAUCUAAGUUAUUUUGUACAGUAAGUUAUUUUCUUAACAUUUUUAUAUUGCACAUUUUAUGUUGUUUGGGUAAUUUGGUUCAUUAAGUACAUAGCUAAGGUAAUGAACAUCUUUUUCAGUAAUUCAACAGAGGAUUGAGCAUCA` is reported as 1.92 ratio.
For `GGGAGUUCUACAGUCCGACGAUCCUUAAUGUUAAUAUUUUUAAAGGAAGCAAGCUAAAAUGUCUGCUUUUGGUACAACACGCAUUAAUAAAAGGUUAAGUUUUGUUUUCCACUGAAGUACGUAAUACUUACUCAGAAAAAAACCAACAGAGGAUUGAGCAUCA`, the bound/input enrichment was 0.185 ratio.

Sample 3 — technique: RNA Bind-n-Seq; form: RNA; sample: in vitro; concentration: 365 nM; reference: no-protein control; reading: higher = stronger binding
Target: RNA binding protein fox-1 homolog 2, RRM domain, GST-SBP tag (RBFOX2, Homo sapiens, UniProt O43251-10, residues 100-194)
Notes: natural RNA segment, single round, ends assumed
Construct (chain): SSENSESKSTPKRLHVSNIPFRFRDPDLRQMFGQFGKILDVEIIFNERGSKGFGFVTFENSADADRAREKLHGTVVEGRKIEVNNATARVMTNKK
`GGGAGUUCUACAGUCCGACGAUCCCAUAAUGCAUCAUUUGAAAAACAAAAACACCUGCCUACUUUACAUUAACAUGGUAAAGAUUGUAUGAAAUACCUGUUUUUCAAAAAAAUAAAAAUAAAGGUUCAAGUCUUGGAAUUCUCGGGUGCCAA` — result for “RBNS enrichment (R)”: 0.794.
`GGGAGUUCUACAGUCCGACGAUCGGGAUCCCUCUCAUGCGGUGGGUCCCAGGGACACUAGAGCCCCUGGUCUGAGAGGGAGAAGCCUGGAUGUAGGAAAACCCGUUUCCACCCCAGGCCCUACUCCCUAGCCUUGGAAUUCUCGGGUGCCAA` — result for “RBNS enrichment (R)”: 0.215.
`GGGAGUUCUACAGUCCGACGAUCCCAACUCAGCAUCUGCUUCCAGAAGUUUCCCACUUGCAGAUGUUCAGUGCAGUUACAGACAUGCGUUUGAUUCCACAGUUUUGUUUCAUUUCAAAAGAAUUCCCCUCACAUGGAAUUCUCGGGUGCCAA` — result for “RBNS enrichment (R)”: 0.396.
Under “RBNS enrichment (R)”, `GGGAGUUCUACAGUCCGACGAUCAUGAGUUCGAAACCAGCCUGGCCAAAACAGUGAAACCCCGUCUCUACUAAAAAUACAAAAUUAGCCAGAUGUGGUGGCGCACACCUGUAAUCCCAGCUACUCAGGAAGCUUGGAAUUCUCGGGUGCCAA` is recorded as 0.421.
`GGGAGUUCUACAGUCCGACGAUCAUCUUCCAUAAUUUUAUGGUAUUACACAGGGAAAGCUAUGACUGCAGGAUCAGUCUAACUAUACUAUUAGGUGCAUGUAUUCUCUUUUCACUAACUUAUACUUGUCUAUCUGGAAUUCUCGGGUGCCAA`: “RBNS enrichment (R)” 2.04.
Under “RBNS enrichment (R)”, `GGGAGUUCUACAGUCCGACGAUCCAAUCGAUGACCUCAUGCCGGCCCAGAAGUGAAGCCUGGCCCUCGCCACCAUCAGGCUGCCGCUUCCUAACUUAUUAACCGGGCAGUGCCCGCCAUGCAUCCUUGAUGUUUGGAAUUCUCGGGUGCCAA` is recorded as 0.557.
Under “RBNS enrichment (R)”, `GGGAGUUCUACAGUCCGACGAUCAUUCCUUUCCCUUGAUGGGGCUUGUGAUGGACCCAAGGUCUACCUCAGACUUGAGUCUGUUUCCCCUUGAUAGCAUCAUGGUUCUGGCCUUUUCCACAUUCAAUGGAAGCUGGAAUUCUCGGGUGCCAA` is recorded as 0.225.
`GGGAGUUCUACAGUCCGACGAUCAGUGCUUUACAUGCUGUGCUCUUUGAAGAGAUUUCAACAAGAAUAUUGUAUGUUAAAGCAUCAGAGAUGGUAAUCUACAGCUCACCUCUGAAGGCAAAUAUAAGCUGGGAUGGAAUUCUCGGGUGCCAA`: “RBNS enrichment (R)” 0.201.
Under “RBNS enrichment (R)”, `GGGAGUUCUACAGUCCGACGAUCUGAAAACGCCUCUUGCCUAUGUUAGUUACCCAUUCUCAACACUGGGCCAUGGCUGCAGAUGGAAUUGGAAAGUAAAAUAUUUGUGGCUGAGCCUCUUUAGUCUUCCCUGAUGGAAUUCUCGGGUGCCAA` is recorded as 0.233.

Sample 4 — technique: protein-binding microarray; form: double-stranded DNA, one strand shown; sample: in vitro; concentration: 250 nM; notes: 60-bp whole probe; together with: salmon DNA 0.4 mg/ml; reference: random background probes; reading: higher = stronger binding; all sequences stand within: GCCTAGCAC … GTCTTGATTCGCTTGACGCTGCTG
Target: Interferon regulatory factor 5, full length, phosphomimetic (IRF5, Homo sapiens, UniProt Q13568-2, residues 1-514, K96S/S451D/S453D/S456D/S462D)
The log fluorescence of `GACGATATCAGTATCGTGACGTGCTAG` is reported as 1.86 z-score.
For `GACGATATCGAGACTGGAGACGTGCTA`, the log fluorescence was 1.2 z-score.
With `TTAGGTCCCGGTATCGGTTAGTGCTAG` the log fluorescence was 4.53 z-score.
`TCATTCCTCTTTCTCTGACTGTGCTAG` has a log fluorescence of 1.65 z-score.
The log fluorescence of `CTAAATATCTTTGTTGAAAAGTGCTAG` is reported as 0.726 z-score.
`TTTGGTTTCGACTATCGGTTAGTGCTA` has a log fluorescence of 9.72 z-score.
`TTAGGTCTCGGTATTGGTTAGTGCTAG` has a log fluorescence of 0.878 z-score.
The log fluorescence of `GACGATTTTAGTATCGAGACGTGCTAG` is reported as 3.37 z-score.
`TCAGCTCTGTGCATAGTACTGTGCTAG` has a log fluorescence of -0.171 z-score.
`CAGGGTCTCGCTTCATCTCCGTGCTAG` has a log fluorescence of -0.362 z-score.
The log fluorescence of `TCAATTTTGTCCTCCCCTACTGTGCTA` is reported as 0.424 z-score.
For `TTAGGACTGGACACTGGGATAGTGCTA`, the log fluorescence was -0.593 z-score.
With `TTAGGTCTCCGTTTCGGTTAGTGCTAG` the log fluorescence was 7.51 z-score.
The log fluorescence of `TTAGGTATCGGTCTCGGTTCGTGCTAG` is reported as 6.82 z-score.
`TTAGATTTCGGGTTTCAATTAGTGCTA` gave a log fluorescence of 5.89 z-score.
For `TTAGGACTGCTTCTCTTTTAGTGCTAG`, the log fluorescence was 0.0397 z-score.
For `TCAGATCTGCCGTCCCACACTGTGCTA`, the log fluorescence was -0.1 z-score.
The log fluorescence of `GAGCTCCTCCTTCTCTAACCGTGCTAG` is reported as -0.416 z-score.
`TTAGGGTTCGGGTATCGGTTAGTGCTA` has a log fluorescence of 3.25 z-score.
The log fluorescence of `GACGGACTGGGACTGGGCACGTGCTAG` is reported as -0.614 z-score.
For `TGAGGACTGGGTTTCGGTTAGTGCTAG`, the log fluorescence was 8.23 z-score.
`TCAGGTTTCAGATGCGTACTGTGCTAG` has a log fluorescence of 1.4 z-score.

Some of these lines once more (sample 1):
`CAATCCGA` gave an E-score of 0.047.
`ACTCTGCG` has an E-score of 0.0483.
`ACGCGCGG` has an E-score of 0.47.
`CCAGTCTA` has an E-score of -0.0805.
`ACAGATAA` has an E-score of -0.106.
With `GGTCCAGA` the E-score was -0.115.
With `ACTTGACC` the E-score was -0.166.
The E-score of `ACGCAACT` is reported as -0.00758.
`ATACCCCA` has an E-score of -0.188.
The E-score of `ATGATCAA` is reported as -0.0203.
For `CTGGCATC`, the E-score was -0.196.
